Assay results of several laboratories.
Numbered parts are unrelated; each lists some results of a single study. Positions count from the first letter of the parent shown.

Series 1 — method: protein-binding microarray; form: double-stranded DNA, one strand shown; matrix: in vitro; concentration: not given; direction: higher = stronger binding
Target: Runt-related transcription factor 1 (RUNX1, Homo sapiens, UniProt Q01196, residues 1-453, full length assumed)
UniProt Q01196, sequence (whole entry, looked up): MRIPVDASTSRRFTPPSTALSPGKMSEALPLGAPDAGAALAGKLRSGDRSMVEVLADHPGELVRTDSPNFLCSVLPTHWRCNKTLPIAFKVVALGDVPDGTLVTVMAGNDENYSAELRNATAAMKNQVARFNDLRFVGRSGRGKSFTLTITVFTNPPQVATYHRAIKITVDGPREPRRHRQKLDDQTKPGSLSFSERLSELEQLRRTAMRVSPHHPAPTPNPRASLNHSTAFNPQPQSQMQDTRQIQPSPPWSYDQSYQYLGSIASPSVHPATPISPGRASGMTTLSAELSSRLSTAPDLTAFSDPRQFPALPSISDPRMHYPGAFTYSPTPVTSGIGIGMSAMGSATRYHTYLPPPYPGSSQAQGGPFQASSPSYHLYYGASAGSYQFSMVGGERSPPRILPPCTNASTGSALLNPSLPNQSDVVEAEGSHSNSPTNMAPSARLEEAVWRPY
Setting: k-mer, scored over probes, only values ≥0.25
| Strand | E-score |
| --- | --- |
| GTGGTTA | 0.458 |
| AAAACCG | 0.311 |
| ACCACAG | 0.398 |
| ACCGCAG | 0.489 |
| AAAGTGG | 0.259 |
| CTAACCA | 0.3 |
| GACCGCA | 0.48 |
| CCGCAAG | 0.334 |

Series 2 — method: RNA Bind-n-Seq; form: RNA; matrix: in vitro; concentration: not given; reference: input RNA pool; direction: higher = stronger binding
Target: RING finger protein unkempt homolog, zinc fingers 1-6, GST-SBP tag (UNK, Homo sapiens, UniProt Q9C0B0, residues 30-357)
UniProt Q9C0B0, sequence (30-357, looked up): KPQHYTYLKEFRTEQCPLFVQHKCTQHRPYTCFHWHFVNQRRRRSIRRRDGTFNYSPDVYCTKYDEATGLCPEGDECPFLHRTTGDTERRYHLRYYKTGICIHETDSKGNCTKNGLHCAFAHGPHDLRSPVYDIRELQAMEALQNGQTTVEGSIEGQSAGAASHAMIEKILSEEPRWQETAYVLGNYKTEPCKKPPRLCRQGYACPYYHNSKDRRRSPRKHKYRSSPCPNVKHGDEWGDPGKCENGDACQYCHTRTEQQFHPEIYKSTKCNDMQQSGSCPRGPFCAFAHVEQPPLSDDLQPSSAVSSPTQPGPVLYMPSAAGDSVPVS
Setting: RNA with constant flanks, human-mouse chimeric sites, ends assumed
All sequences stand within: GGGAGUUCUACAGUCCGACGAUC … CAACAGAGGAUUGAGCAUCA
| Strand | bound/input enrichment |
| --- | --- |
| AAAUCGUGUGUGUCCAAUAUUGAAAGUACUUUAUCUGCACUCCAGUAUGUAAGCAGUAUAGUAGUUUCUUUAGAGAAUAGGUCUGCCAUUGUAAAGUACAAUGCAAGCUUAGUCACUCCA | 0.945 ratio |
| AUCAAAUACUUUGGGGAUAUUAUUAGCGUGGGACAGAGACUGUUGCAAGGAGCUCGGAUUUUAGGAAUUCCAGUUAUCAUAACGGAACAAUACCCCAAAGGACUUGGCAGCACCGUUCAA | 0.703 ratio |
| GAAACAUUUAAAUUUAAAGAAGCUGUUGUUCUAGGAAGUACGGACUUUCUAGAAGAUGAUAUAGAGAAAAUUGUAGAAGAACUGGGAAAAGAGUAUAAGGGCAACGCUUAUCAUUUAAUG | 1.5 ratio |
| CAGUCCCGCGACAGCGUUGCAGGACGAUGUGAACAAAAACUCAAAGCGGACCCUCUAUUGUAGUUCUUGAUUCUCGAAAUGUGCUAUUAUUGUUUGUCUUUUUUUUUAAAAGAAAAGAGA | 0.215 ratio |
| AAAGAACCUCUCUCUGAUGAAGAUGAGGAAGACAAUGAUGAUGUUGAACCUAUUACUGAAUUUCGAUUUGUGCCUAGUGAUAAGUCAGCAUUGGAGGCGAUGUUCACAGCAAUGUGUGAG | 0.376 ratio |
| UAUAUCACCAAUGUCCUACAAAAUCCUGACUUGGCUCUGAGAAUGGCUGUACGUAAUAACUUAGCUGGUGCUGAAGAACUCUUUGCCCGGAAAUUUAAUGCUCUUUUCGCCCAGGGAAAC | 0.252 ratio |
| CUGGCACUCUAUCAGAUAUAUUAAUUUUUUAAUGUAGAUAAAAUUUCAAAAAUGAAUGGCUAGUUUACACGUUUAACUAGGGUUUUACUAUAUAUGUGUACAUAUGUAUAUAUAUAUAUA | 5.09 ratio |
| CAGUCCCGCGACAGCGUUGCAGGACGAUGUGAACAAAAACUCAAAGCGGACCCUCUACUGUAGUUGAUGAUUCUCGAAAUGUGCUAUUAUUGUUUGUCUUUUUUUUUUUUUUUUUAAAGA | 0.891 ratio |

Series 3 — target: CCNA2, cyclin fold, Cln2 fusion (human); method: yeast growth competition, sequencing; matrix: yeast; setting: strong parent motif; reference: not given; direction: higher = stronger binding
Parent: PKN2 docking peptide (human); VSAVQKLDFSDTM
| Substitution | normalised enrichment score |
| --- | --- |
| VTAVQKLDFSDTM [S2T] | 1.89 |
| VSAVQKLDFSDTE [M13E] | 2.14 |
| VSAAQKLDFSDTM [V4A] | 1.43 |
| VSAVQKLDFSKTM [D11K] | 1.5 |
| VSAVQDLDFSDTM [K6D] | -0.173 |
| GSAVQKLDFSDTM [V1G] | 1.67 |
| VSAVQKLDFFDTM [S10F] | 1.09 |
| VSAVQKLDFSDRM [T12R] | 1.96 |

Other studies, line by line
| Sequence | target | test | system | conditions | endpoint | result |
| --- | --- | --- | --- | --- | --- | --- |
| YSDNEMLTH | HLA class I histocompatibility antigen, A alpha chain, allele A*80:01 (Homo sapiens, UniProt P04439) | peptide-MHC binding | peptide | concentration not given | binding | inactive |

Repeated from above (other studies, line by line):
| Sequence | target | test | system | conditions | endpoint | result |
| --- | --- | --- | --- | --- | --- | --- |
| YSDNEMLTH | HLA class I histocompatibility antigen, A alpha chain, allele A*80:01 (Homo sapiens, UniProt P04439) | peptide-MHC binding | peptide | concentration not given | binding | inactive |
